Published values of several laboratories.
Parts stem from different laboratories: compare values within a part only.

Series 1
Target: Histone acetyltransferase KAT6A, winged helix 2, GST fusion (KAT6A, Homo sapiens, UniProt Q92794, residues 85-181)
Technique: protein binding microarray
Molecule type: double-stranded DNA, one strand shown
Matrix: in vitro
Tested at: not given
Setting: 8-mer, flanks averaged, mean of 2 arrays, mostly near background
Baseline: not given
Direction: higher = stronger binding
Target sequence (chain): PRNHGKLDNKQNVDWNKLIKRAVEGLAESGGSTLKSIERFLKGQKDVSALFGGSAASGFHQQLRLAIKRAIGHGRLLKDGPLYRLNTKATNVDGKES
Strand | E-score
AAAAAATG | 0.166
GAACCTCA | -0.0382
AATCGCCG | 0.055
GAGGCTCA | -0.0457
AGCATGGA | 0.0201
GGGATACA | -0.115
ACACGTTG | -0.113
CGAATACA | -0.00135
ATAGCTCA | -0.0794
TAGATGAA | 0.0993
AACCTTGC | 0.0226
GCCGAATA | -0.0271
AAGCATAA | 0.0103
CGAGCTCA | 0.068
CGACGGAA | 0.00571
ATCAGTAG | -0.0124
CGGGCAAC | 0.168
CTATACTA | -0.0644
AGGTACAG | -0.141
ACACCGGA | 0.124
CACGTCTC | -0.173

Series 2
Target: RNA binding protein fox-1 homolog 2, RRM domain, GST-SBP tag (RBFOX2, Homo sapiens, UniProt O43251-10, residues 100-194)
Technique: RNA Bind-n-Seq
Molecule type: RNA
Matrix: in vitro
Tested at: 365 nM
Setting: natural RNA segment, single round, ends assumed
Baseline: no-protein control
Direction: higher = stronger binding
All sequences stand within: GGGAGUUCUACAGUCCGACGAUC … UGGAAUUCUCGGGUGCCAA
Target sequence (chain): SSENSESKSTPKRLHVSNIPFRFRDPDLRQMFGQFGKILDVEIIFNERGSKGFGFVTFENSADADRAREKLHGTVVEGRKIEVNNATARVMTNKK
Strand | RBNS enrichment (R)
UUUUCUGGCAACAUUUAAUGAUCCACAAAUGUAUAUAUAGAAAAUCUUCCUCCCCUUUCUCCCUUUCACUCCUUCCCCUGCGGACACAUUCUAGUUCCUGCAGGGCUUAU | 0.365
CAACAGAGGAUCGUUGAGAUUGAGCAGCGCUUGGUGAUCUCUCAGCAAACAACCCCUGCCCGUGGGCCAAUCUACUUGAAGUUACUCGGACAAAGACCCCAAAGUGGGGC | 0.581
GGAGCGUCAAAGGUGACCUUUACCCUCACAGCGUACCAAUAAACCACGGUGCCAGCUUUGGAGAUGAGGAUUGGGGACUCUUGUCUGUCAAGAAGGCACCCAAGCGCUCA | 0.275
CUUUAUCCUGCACUCAGUACCCGAACUCACUUCAGUAUGCUUACUGAGGCCAUGAGAACCUGAGGGGCAUCUGCCCAGGACAGGAGCCAUGGCAUAUGACAAAGACCAAU | 0.339
CAGCACUGUGCCUGCCAGAGUUCCCACAGCACCCGAGGGAGAAGGUGAUGGCUGUCUCUCUCUAGUAAUGUCCUUGUUCUUAUUCUUCCCUCCUACAGCUGGCCUAACCA | 2.01
CAGCUCAGUUCCCUAUGUUUAUGCUGUGUUGUUCCCACCUCAGUGCUGUCAGCCUUUGGGACAGUGGCUCUCAAAAGCCAAGAGCUCUUGGUUUAUCUGCACAGUACAAG | 0.437
GUUAAGUAUCUGAAGGGAGGGUAGUGUAGAUAGCAAAUGACAGAGACAGUACACACCUAGUGUAUUGUCACUGAAGUCUUAGGUUUAACUUUGACAUCACAGGUCCCUUC | 0.313
CCAGGUGGGCUGGGUGGAAGGACCCUCAGCCACCAAGAACUGACGCCCUCAUGGCCCUAGACUAUGGGGUUGAAAACUCAUAGCAGUCAGGUUUGUUUACCAUCUCUCCG | 0.334
CCAGGGCCUGCAUGGGGGCACCGGGCUCCAUGCCUCUGGAGGCCUCUGGCCCUCGGUGGCUGCACAGAAGGGCUCUUUCUCUCUGCUGAGCUGGGCCCAGCCCCUCCACG | 4.62
CUCCCUCUGCAGCGCUCGUCUGCCCGCUCGCCUGGGCUGCUCCUGCACUCGUGCUGGGCAUCCUGCCGAAGUGGCCACACUGCCACACUGCUCUGGCUCACGAGUAUUGG | 0.383
AUAAUGGGAUUUUCUUUUCUUUUCUCUGGUAAUAUUGACUUGUAUAUUUUAAGAAAUAACAGAAAGCCUGGGUGACAUUUGGGAGACAUGUGACAUUUAUAUAUUGAAUU | 1.86
CCCAGCUGGAAACCCAGAGUCUGAGGGGGAAUCAGGUUCUGGAAGGCAAGCCAGAACUCCAGAGCUGAGCUGGUCACAGUCACUCCUCCCCCACCACCCCUGCCCCUCCA | 0.362

Series 3
Target: Centromere-binding protein 1, full length, His-tagged (CBF1, Saccharomyces cerevisiae, UniProt P17106, residues 1-351)
Sequence of UniProt P17106 (whole entry, looked up): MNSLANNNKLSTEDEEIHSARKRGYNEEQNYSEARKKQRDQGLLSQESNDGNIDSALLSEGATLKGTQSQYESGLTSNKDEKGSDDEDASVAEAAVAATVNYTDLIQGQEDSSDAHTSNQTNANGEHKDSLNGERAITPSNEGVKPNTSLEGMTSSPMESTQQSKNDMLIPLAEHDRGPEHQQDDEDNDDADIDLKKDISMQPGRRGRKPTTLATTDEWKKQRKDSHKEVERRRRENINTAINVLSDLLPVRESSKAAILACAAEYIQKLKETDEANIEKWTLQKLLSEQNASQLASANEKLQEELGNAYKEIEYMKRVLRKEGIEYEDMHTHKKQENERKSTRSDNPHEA
Technique: competition protein-binding microarray
Molecule type: double-stranded DNA, one strand shown
Matrix: in vitro
Tested at: 2 µM
Setting: whole 60-bp probe, lowest competitor level
With: Pho4 competitor, 0.05 µM
Direction: higher = stronger binding
All sequences stand within: … GTCTTGATTCGCTTGACGCTGCTG
Strand | fluorescence intensity [a.u.]
TAACTGGTTCAGAAACACGTTCCAACAATGGCTTGA | 91.2
CATACCCAACCTTGGTCGGTGGGTGAAGATATTTGT | 59
TTCCAGGACATTCACCATGTGCTTTTTTCCATAACA | 137
AGCTTCCGAGACTTTTTCGTGATGGGAGATAGATGC | 74.2
CTTCTGTAAATTTGCTCCGTGGGTGGACGCGCCCCG | 82.9
GTGACGAAAACGGATGCCATGTTCCAGCACCAACTG | 79.5
ATCGTTTATAGTGGGCATGTGGCTGGTTGAACAATG | 141
CGTCCTAGTGATTGCATTGTGGGTGCCATGAGGAAG | 86.7
ATTCCTTTCCTGTAACTCGTGCTTTGAGAAAAGTAC | 146
AGCGCATCCCAGACACTCGTGTATCTAAATCCCAGT | 92.3
CAATCTTATCATTGCCACGTGCAAAAGCAACATCTT | 1450
GTCTTGTCTCATTTTCACGTGGCATTCCCCACTTCA | 689
CGGGGTTAAGTTTGCGGTGTGGGTGGCTTGCAGCAG | 64
GAGATTTAGCCTTTGACCGTGCCGATAGTTGTTTTC | 87.2
TGCGCAACAACTTGATATGTGGGTGTATGTCTAGAA | 74
AAAGCGGTAATTTGCTGCGTGGGTGCAGATATCTAT | 71.4
CGACTTGCGAGAAGACACGTGCGCGGAAGGAGCTTG | 1110
CTAACGAAGGTTTGGTACGTGGGTGACAAGCCAAGT | 60
GCCGGAAAAAAAAAGCACGCATCCGGCAAGCACACT | 82
AAGGGCAAAAAAGCTCACATGACAAGCTTGTTTTGG | 618
TTTGTGGTTTTCAGCCGCGTGTATACCTTCAGCTTG | 76.8

Series 4
Target: RING finger protein unkempt homolog, zinc fingers 1-6, GST-SBP tag (UNK, Homo sapiens, UniProt Q9C0B0, residues 30-357)
Sequence of UniProt Q9C0B0 (30-357, looked up): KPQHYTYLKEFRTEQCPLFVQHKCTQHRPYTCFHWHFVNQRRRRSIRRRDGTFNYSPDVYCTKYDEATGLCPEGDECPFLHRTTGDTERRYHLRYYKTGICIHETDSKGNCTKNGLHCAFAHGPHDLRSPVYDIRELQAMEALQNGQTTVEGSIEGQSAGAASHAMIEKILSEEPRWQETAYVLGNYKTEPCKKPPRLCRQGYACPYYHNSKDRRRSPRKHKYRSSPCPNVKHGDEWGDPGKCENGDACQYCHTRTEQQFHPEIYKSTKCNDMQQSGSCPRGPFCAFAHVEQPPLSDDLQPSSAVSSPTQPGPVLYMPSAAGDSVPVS
Technique: RNA Bind-n-Seq
Molecule type: RNA
Matrix: in vitro
Tested at: not given
Setting: RNA with constant flanks, human and mouse sites, ends assumed
Baseline: input RNA pool
Direction: higher = stronger binding
All sequences stand within: GGGAGUUCUACAGUCCGACGAUC … CAACAGAGGAUUGAGCAUCA
Strand | bound/input enrichment [ratio]
CUAGCCAAACACCCAUGCAAUGCUUCAAUGGAAUGCGACAAAUGUCAGAGGCGGCAGAAGAAUAGAGCAUUUUGCUAUUUUUGUAAUUCUGUUCAGAAGUUACCAAUUUGUGCACAGUGU | 0.241
AGGCCAAAUGAUUUCAGUGCCAAUCAGUGCCAAAAGAAAAUGAUGGAAGUGCAGAAGAAGUCUUUUGAAGAGAAAUAUGAUACCUUCAUGACGAUUUGCCAAAACUUUGAACCAGUUUUC | 0.162
GAGAAUAAUAUUCUUGCAAAAAAGAAACCCUAUAAGUGUGAUAAAUGUAGAAAAGCCUUUAUUCAUAGAUCAUCGCUUACUAAACAUGAGAAAACACAUAAAGGAGAGGGAGCUUUCCCU | 0.215
AUCCAUUCUACUCCUUGGAAAUGCCUAUCAGAUGCGAGCUGUUUGAUCAAAACCUGAAGCUAGCUCUAGAGGUGGCAGAGAAGGCUGGCACUUUUGGACCUGGGUCAUAGGAUGAACCUG | 0.192
GGAGCUGAUGCUGAUCUAAUUAUGCUUGGUCUUGCUACACAUGAACCUAACUUCACCAUAAUCAGAGAAGAAUUCAAACCAAAUAAACCUAAACCAUGUGCUCUUUGUAAUCAGUUUGGA | 0.25
UGUGUGUGUGUGAGAGAGAGAGAGAGAGAGAGAGAGAGAGAGAGAGAGAGAGAUCUACCCAUUAGAAUUGAUUUAGGUGCCCAUUGCAUCUUUUGUACUAUGGAGUUGUUUACAGUAAGC | 30.4
GUGCGUGUGGGUGUGUGCGCGCGUGAGCACACACGCGUGUGUUGGGGGGGGUGGGGGGAUUGGGGUGGACUCAGGGUAUCUUGCCAGAGAUACCUGUUUUGAUGAGUACCUAUUUUGAUG | 0.507
AAGCCUCCAAAGCGGAAGAAGGCAGACACUGAGGGGAAGUCCCCAUCUCACAGUUCUUCUAAUAGACCUUUCACCCCACCUACCAGCACGGGUGGGUCCAAAUCCCCAGGCAGUUCAGGA | 0.241
AGUACGCGAGAGCGGCUUCUGUCUGCGCUGGAAGAUCUGGAGGUCUUGUCGAGGGAACUCAUAGAAAUGCUUGCAAUUUCAAGAAAUCAGAAGCUAUUACAGCUGGAAGAGGAAAACCAG | 0.286
UUUAAGGAUUCUAUGCUGGCAUCUAUGUUUAGUGGUCGUUUCCCUCUAAAAACAGAUGAAUCUGGGGCGUGCAUUAUUAACCGUGAUGGACAUCUAUUCAAAUACAUUUUGGACUACCUG | 0.232
UUUUUUUUAAAUUUUUUUAUUUUCUUUUUGUUUGUUUCGUUUUGGGGAGGGGUAAAAGUUCUUAGCACAAGUGUUUUACAUAAUUUGUACCAAAAAAAUUACACACAAAAAAAAAAAAAG | 1.2

A few entries again (series 2):
Strand | RBNS enrichment (R)
GGAGCGUCAAAGGUGACCUUUACCCUCACAGCGUACCAAUAAACCACGGUGCCAGCUUUGGAGAUGAGGAUUGGGGACUCUUGUCUGUCAAGAAGGCACCCAAGCGCUCA | 0.275
CUUUAUCCUGCACUCAGUACCCGAACUCACUUCAGUAUGCUUACUGAGGCCAUGAGAACCUGAGGGGCAUCUGCCCAGGACAGGAGCCAUGGCAUAUGACAAAGACCAAU | 0.339
CAGCACUGUGCCUGCCAGAGUUCCCACAGCACCCGAGGGAGAAGGUGAUGGCUGUCUCUCUCUAGUAAUGUCCUUGUUCUUAUUCUUCCCUCCUACAGCUGGCCUAACCA | 2.01
GUUAAGUAUCUGAAGGGAGGGUAGUGUAGAUAGCAAAUGACAGAGACAGUACACACCUAGUGUAUUGUCACUGAAGUCUUAGGUUUAACUUUGACAUCACAGGUCCCUUC | 0.313
CCAGGGCCUGCAUGGGGGCACCGGGCUCCAUGCCUCUGGAGGCCUCUGGCCCUCGGUGGCUGCACAGAAGGGCUCUUUCUCUCUGCUGAGCUGGGCCCAGCCCCUCCACG | 4.62
CCCAGCUGGAAACCCAGAGUCUGAGGGGGAAUCAGGUUCUGGAAGGCAAGCCAGAACUCCAGAGCUGAGCUGGUCACAGUCACUCCUCCCCCACCACCCCUGCCCCUCCA | 0.362
CAGCUCAGUUCCCUAUGUUUAUGCUGUGUUGUUCCCACCUCAGUGCUGUCAGCCUUUGGGACAGUGGCUCUCAAAAGCCAAGAGCUCUUGGUUUAUCUGCACAGUACAAG | 0.437
CCAGGUGGGCUGGGUGGAAGGACCCUCAGCCACCAAGAACUGACGCCCUCAUGGCCCUAGACUAUGGGGUUGAAAACUCAUAGCAGUCAGGUUUGUUUACCAUCUCUCCG | 0.334
